# Experimental data collected from several papers.
# Numbered parts are unrelated; each lists some results of a single study. Substitutions count along the parent as printed.

# Study 1
# Target: ABI1, truncated, D143A, DHFR fusion (Arabidopsis thaliana)
# Technique: DHFR PCA, deep sequencing
# Medium: yeast
# Notes: methotrexate growth selection, single substitutions
# Together with: (+)-ABA 0.0091 µM
# Baseline: wild-type fitted maximum
# Reading: higher = stronger binding
# Starting sequence: PYL1, truncated, DHFR fusion (Arabidopsis thaliana); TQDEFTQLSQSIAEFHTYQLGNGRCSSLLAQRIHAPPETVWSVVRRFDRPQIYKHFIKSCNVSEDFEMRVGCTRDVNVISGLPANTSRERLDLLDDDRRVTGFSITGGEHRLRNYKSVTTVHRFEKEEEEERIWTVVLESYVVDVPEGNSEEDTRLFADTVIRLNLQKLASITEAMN; partner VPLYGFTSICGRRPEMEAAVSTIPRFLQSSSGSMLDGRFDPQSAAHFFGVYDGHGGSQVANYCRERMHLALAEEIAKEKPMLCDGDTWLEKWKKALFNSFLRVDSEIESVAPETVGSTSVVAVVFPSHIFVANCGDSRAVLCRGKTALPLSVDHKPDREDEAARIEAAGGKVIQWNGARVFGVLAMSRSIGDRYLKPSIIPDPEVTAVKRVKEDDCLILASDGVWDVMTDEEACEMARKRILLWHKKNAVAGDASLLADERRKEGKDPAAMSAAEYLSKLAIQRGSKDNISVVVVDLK
Substitution,relative binding score
E147F,14.1%
L82N,11.7%
V100S,-0.574%
H110Y,12.3%
E14T,2.49%
R32S,6.67%
L8R,2.55%
R69P,-12.6%
R99E,-5.98%
A13V,6.71%
V78D,3.38%
L94I,-0.0786%
D153Q,1.91%
Q7R,11.9%
S59F,5.01%
V40N,-9.77%
E38Y,-2.09%
A30H,6.35%
T17C,1.55%
V137E,-1.81%

# Study 2
# Target: CCND1, cyclin fold, Cln2 fusion (human)
# Technique: yeast growth competition, sequencing
# Medium: yeast
# Notes: weak parent motif
# Baseline: not given
# Reading: higher = stronger binding
# Starting sequence: RB1 docking peptide (human); PKPLKKLRFDIEG
Substitution,normalised enrichment score
L4K,-0.682
K2S,-0.0913
P3T,-0.458
I11N,0.302
P1G,-0.143
G13C,0.123
D10C,-0.287
F9M,0.105
K6I,0.559
R8W,-0.155
K2N,-0.0102
K2T,-0.911
L4P,-0.136
L7I,-0.139
L4W,-0.202
P3E,0.395
F9G,0.416
L7C,-0.0286
R8L,-0.0726
E12F,0.46
P3H,-0.531
L7G,0.031
F9C,0.11
L4C,0.41
K6R,0.0614

# Study 3
# Target: Prothrombin, mature alpha-thrombin (F2, Homo sapiens, UniProt P00734)
# Technique: aptamer microarray, sandwich
# Molecule type: DNA with 2'F-ANA
# Medium: in vitro
# Concentration: 200 nM
# Notes: whole 15-mer aptamer, many near background
# Together with: Cy3 exosite-II aptamer, 400 nM
# Reading: higher = stronger binding
# Oligonucleotide: GGTTGGTGTGGTTGG
Modification,mean fluorescence intensity [a.u.]
2'F-ANA at 6 7 8 10 12 13 15,189
2'F-ANA at 1 2 3 4 6 7 12 13,206
2'F-ANA at 1 2 4 5 6 7 9 11 12 13 15,61.4
2'F-ANA at 3 4 5 8 12,240
2'F-ANA at 1 6 7 8 9 10 15,59.3
2'F-ANA at 4 5 7 8 10 11 12 13 15,50.3
2'F-ANA at 2 4 6 7 9 12 14 15,101
2'F-ANA at 2 3 4 6 7 8 10 11 12 14 15,151
2'F-ANA at 6 7 9 12 13 14,182
2'F-ANA at 1 5 6 7 8 9 10 11 12 13,47.2
2'F-ANA at 4 7 11 13 14,91.9
2'F-ANA at 1 2 4 5 6 7 11 12 14,55.9
2'F-ANA at 1 2 4 8 12 13,199
2'F-ANA at 1 2 4 6 8 9 10 11,50
2'F-ANA at 1 2 3 7 10 11 12 15,109
2'F-ANA at 4 5 7 8 9 10 11 14 15,61.2
2'F-ANA at 1 5 8 10 11 13 15,45.8
2'F-ANA at 1 2 3 4 5 6 7 8 11 12 14,51.1
2'F-ANA at 1 2 4 5 8 9 10 12 13 14 15,105
2'F-ANA at 1 5 6 8 9 12 14,46.2
2'F-ANA at 1 2 3 6 7 14,66.1
2'F-ANA at 1 3 10 11 13,74.2
2'F-ANA at 2 4 5 7 10 11 12 14 15,45.1
2'F-ANA at 1 5 6 7 9 10 11 14 15,117
2'F-ANA at 1 5 6 7 9 11 12 14 15,61

# Study 4
# Target: CEBPE, bZIP domain (human)
# Technique: DHFR protein complementation
# Medium: yeast
# Notes: single substitutions, most at no-binding floor
# Baseline: wild-type JUN-FOS pair
# Reading: higher = stronger binding
# Starting sequence: JUN, bZIP domain (human); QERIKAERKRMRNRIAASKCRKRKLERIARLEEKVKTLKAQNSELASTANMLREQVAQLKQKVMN; partner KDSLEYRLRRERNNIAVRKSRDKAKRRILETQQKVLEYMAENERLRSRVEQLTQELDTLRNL
Substitution,binding fitness [natural log]
S47W,-1.18
N42V,-1.5
V56L,-1.23
S47D,-1.03
A40W,-1.37
M51N,-1.09
Q55L,-1.3
Q55T,-1.33
N42W,-1.42
R53T,-1.02
R30M,-1.09
N42Q,-1.33
R30W,-1.13
A40G,-1.39
A29M,-1.15
Q41Y,-1.45
I28H,-1.22
R30H,-1.15
S43M,-1.01
Q41L,-1.23
S43W,-1.34
L52V,-1.42
A57P,-1.53
V35F,-1.23
E44I,-1.2

# Study 5
# Target: Homeobox protein Hox-C11, full length (HOXC11, Homo sapiens, UniProt O43248, residues 1-304)
# UniProt O43248, sequence (whole entry, looked up): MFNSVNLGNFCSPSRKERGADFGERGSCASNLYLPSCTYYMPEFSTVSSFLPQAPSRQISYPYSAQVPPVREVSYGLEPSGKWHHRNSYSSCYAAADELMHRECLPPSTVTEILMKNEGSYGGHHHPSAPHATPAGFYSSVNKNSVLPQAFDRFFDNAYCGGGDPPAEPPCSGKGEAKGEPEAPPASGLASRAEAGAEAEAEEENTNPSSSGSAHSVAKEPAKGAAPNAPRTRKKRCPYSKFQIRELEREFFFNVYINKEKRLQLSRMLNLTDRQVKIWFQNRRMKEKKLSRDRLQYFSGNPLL
# Technique: protein-binding microarray
# Molecule type: hairpin DNA
# Medium: in vitro
# Concentration: not given
# Notes: whole hairpin DNA, median over replicate spots
# Baseline: not given
# Reading: higher = stronger binding
Oligonucleotide,median fluorescence [a.u.]
GAGGCCAGGTCGTAAAAGCCTCCTGGCTTTTACGACCTGGCCTCACACTC,10600
GAGGCCAGGTCGTTAATGCCTCCTGGCATTAACGACCTGGCCTCACACTC,10500
GAGGCCAGCGCGTAAAAGCCTCCTGGCTTTTACGCGCTGGCCTCACACTC (5mC at 9),10200
GAGGCCCGGTCGTTAAAGCCTCCTGGCTTTAACGACCGGGCCTCACACTC (5mC at 7 37),10100
GAGGCCACGTCGTTAAAGCCTCCTGGCTTTAACGACGTGGCCTCACACTC (5mC at 8 36),9160
GAGGCCAGGTCCGAAAAGCCTCCTGGCTTTTCGGACCTGGCCTCACACTC (5mC at 12 32),9840
GAGGCCAGGTCCTTAAAGCCTCCTGGCTTTAAGGACCTGGCCTCACACTC,8120
GAGGCCAGGTCGTCAAAGCCTCCTGGCTTTGACGACCTGGCCTCACACTC (5mC at 14),10200
GAGGCCAGGTCGTTTAAGCCTCCTGGCTTAAACGACCTGGCCTCACACTC,9830
GAGGCCACGTCGTAAAAGCCTCCTGGCTTTTACGACGTGGCCTCACACTC (5mC at 36),9610
GAGGCCAGGACGTTAAAGCCTCCTGGCTTTAACGTCCTGGCCTCACACTC,9610
GAGGCCAGGCCGTTAAAGCCTCCTGGCTTTAACGGCCTGGCCTCACACTC,9220
GAGGCCAGGTCGGTAAAGCCTCCTGGCTTTACCGACCTGGCCTCACACTC (5mC at 32),10000
GAGGCCAGGCCGTTAAAGCCTCCTGGCTTTAACGGCCTGGCCTCACACTC (5mC at 10),9240
GAGGCCCGGTCGTAAAAGCCTCCTGGCTTTTACGACCGGGCCTCACACTC (5mC at 7),10500
GAGGCCAGGTCCTAAAAGCCTCCTGGCTTTTAGGACCTGGCCTCACACTC (5mC at 12),7970
GAGGCCAGGACGTAAAAGCCTCCTGGCTTTTACGTCCTGGCCTCACACTC,9720
GAGGCCAGGTCTTTAAAGCCTCCTGGCTTTAAAGACCTGGCCTCACACTC,7770
GAGGCCAGGTCGTAACGGCCTCCTGGCCGTTACGACCTGGCCTCACACTC (5mC at 28),11900
GAGGCCACGTCGTAAAAGCCTCCTGGCTTTTACGACGTGGCCTCACACTC (5mC at 8),9180
GAGGCCAGGTCGTAACAGCCTCCTGGCTGTTACGACCTGGCCTCACACTC,11100
GAGGCCAGGTCGTTAACGCCTCCTGGCGTTAACGACCTGGCCTCACACTC,10800
GAGGCCAGGTAGTTAAAGCCTCCTGGCTTTAACTACCTGGCCTCACACTC,9160
GAGGCCAGGTCGTAACGGCCTCCTGGCCGTTACGACCTGGCCTCACACTC (5mC at 16),10300
GAGGCCAGCTCGTTAAAGCCTCCTGGCTTTAACGAGCTGGCCTCACACTC (5mC at 9),8810

# Some of these lines once more (study 4):
Substitution,binding fitness [natural log]
S47W,-1.18
N42V,-1.5
V56L,-1.23
S47D,-1.03
A40W,-1.37
M51N,-1.09
Q55L,-1.3
Q55T,-1.33
N42W,-1.42
R53T,-1.02
R30M,-1.09
N42Q,-1.33
R30W,-1.13
A40G,-1.39
A29M,-1.15
Q41Y,-1.45
I28H,-1.22
